Experimental data collected from several papers.
Protocols differ between the studies behind these lines. Numbers after ± are the reported error.
Gria2: Glutamate receptor 2 (Gria2, Rattus norvegicus, UniProt P19491)
Sequence of UniProt P19491 (whole entry, looked up): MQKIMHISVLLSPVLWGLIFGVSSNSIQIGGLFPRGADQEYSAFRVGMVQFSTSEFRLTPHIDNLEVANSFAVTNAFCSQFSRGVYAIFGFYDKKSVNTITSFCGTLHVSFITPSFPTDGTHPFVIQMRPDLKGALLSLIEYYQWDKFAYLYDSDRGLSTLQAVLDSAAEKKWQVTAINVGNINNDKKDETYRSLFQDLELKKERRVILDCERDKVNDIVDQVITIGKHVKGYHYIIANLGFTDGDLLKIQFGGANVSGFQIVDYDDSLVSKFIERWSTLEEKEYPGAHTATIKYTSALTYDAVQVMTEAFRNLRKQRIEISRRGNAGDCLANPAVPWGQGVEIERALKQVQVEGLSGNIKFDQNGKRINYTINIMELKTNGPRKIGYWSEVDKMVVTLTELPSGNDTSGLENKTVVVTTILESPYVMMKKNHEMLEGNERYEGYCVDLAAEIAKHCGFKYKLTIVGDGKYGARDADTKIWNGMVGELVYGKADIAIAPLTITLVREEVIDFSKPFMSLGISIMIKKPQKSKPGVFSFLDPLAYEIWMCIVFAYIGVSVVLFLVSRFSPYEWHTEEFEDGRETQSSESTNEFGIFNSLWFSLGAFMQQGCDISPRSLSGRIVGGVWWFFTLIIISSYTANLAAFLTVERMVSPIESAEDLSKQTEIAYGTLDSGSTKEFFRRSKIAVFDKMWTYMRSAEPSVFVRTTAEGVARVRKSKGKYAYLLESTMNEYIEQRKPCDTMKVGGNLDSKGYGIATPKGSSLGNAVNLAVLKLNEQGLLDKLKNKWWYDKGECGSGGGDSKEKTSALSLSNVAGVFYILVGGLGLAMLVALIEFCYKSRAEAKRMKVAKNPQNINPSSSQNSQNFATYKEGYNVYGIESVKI
VKORC1: Vitamin K epoxide reductase complex subunit 1 (VKORC1, Homo sapiens, UniProt Q9BQB6)
Sequence of UniProt Q9BQB6 (whole entry, looked up): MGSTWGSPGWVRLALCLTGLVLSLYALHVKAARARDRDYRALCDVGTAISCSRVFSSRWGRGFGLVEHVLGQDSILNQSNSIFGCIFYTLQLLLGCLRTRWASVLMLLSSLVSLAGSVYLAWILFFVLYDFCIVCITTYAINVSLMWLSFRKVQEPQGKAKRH
CDK4: Cyclin-dependent kinase 4 (CDK4, Homo sapiens, UniProt P11802)
Sequence of UniProt P11802 (whole entry, looked up): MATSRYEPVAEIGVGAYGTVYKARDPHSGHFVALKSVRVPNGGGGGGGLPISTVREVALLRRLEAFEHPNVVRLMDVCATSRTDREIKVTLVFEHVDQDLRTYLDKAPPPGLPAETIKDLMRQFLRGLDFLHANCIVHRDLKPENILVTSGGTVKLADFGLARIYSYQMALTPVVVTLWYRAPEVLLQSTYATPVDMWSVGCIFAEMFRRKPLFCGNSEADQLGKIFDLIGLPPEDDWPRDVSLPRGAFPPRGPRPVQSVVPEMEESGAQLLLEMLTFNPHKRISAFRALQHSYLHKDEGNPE
DDR2: Discoidin domain-containing receptor 2 (DDR2, Homo sapiens, UniProt Q16832)
Sequence of UniProt Q16832 (whole entry, looked up): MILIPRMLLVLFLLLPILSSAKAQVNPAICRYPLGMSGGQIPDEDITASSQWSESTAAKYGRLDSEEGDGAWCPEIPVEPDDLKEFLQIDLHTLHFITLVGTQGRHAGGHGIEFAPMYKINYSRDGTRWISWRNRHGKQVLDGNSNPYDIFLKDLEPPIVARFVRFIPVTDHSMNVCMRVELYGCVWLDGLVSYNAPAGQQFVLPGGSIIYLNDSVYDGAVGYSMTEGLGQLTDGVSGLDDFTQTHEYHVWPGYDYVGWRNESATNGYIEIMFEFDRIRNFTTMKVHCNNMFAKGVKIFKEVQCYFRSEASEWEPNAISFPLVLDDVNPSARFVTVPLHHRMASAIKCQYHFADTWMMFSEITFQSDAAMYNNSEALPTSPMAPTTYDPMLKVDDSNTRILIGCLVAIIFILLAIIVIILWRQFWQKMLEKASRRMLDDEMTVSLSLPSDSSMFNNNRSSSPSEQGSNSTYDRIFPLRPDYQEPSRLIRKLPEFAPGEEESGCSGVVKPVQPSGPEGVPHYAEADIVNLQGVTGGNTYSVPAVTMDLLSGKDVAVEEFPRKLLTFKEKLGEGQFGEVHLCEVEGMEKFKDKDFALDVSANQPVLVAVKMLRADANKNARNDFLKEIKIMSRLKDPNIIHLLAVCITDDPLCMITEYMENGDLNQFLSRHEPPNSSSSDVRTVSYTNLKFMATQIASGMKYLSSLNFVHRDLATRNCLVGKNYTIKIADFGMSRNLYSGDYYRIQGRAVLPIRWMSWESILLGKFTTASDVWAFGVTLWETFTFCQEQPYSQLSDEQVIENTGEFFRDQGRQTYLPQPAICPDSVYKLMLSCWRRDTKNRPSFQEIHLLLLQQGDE
Mc1r: Melanocyte-stimulating hormone receptor (Mc1r, Mus musculus, UniProt Q01727)
Sequence of UniProt Q01727 (whole entry, looked up): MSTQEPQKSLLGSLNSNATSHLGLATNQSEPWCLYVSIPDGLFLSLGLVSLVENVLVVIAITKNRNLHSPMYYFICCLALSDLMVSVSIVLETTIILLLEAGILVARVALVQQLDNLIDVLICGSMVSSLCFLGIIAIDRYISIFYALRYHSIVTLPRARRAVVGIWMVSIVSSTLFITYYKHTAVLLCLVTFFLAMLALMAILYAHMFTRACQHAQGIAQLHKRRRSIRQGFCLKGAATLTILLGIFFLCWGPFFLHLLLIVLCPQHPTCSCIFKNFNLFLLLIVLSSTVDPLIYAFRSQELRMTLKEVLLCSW
Sequence of UniProt P30968 (whole entry, looked up): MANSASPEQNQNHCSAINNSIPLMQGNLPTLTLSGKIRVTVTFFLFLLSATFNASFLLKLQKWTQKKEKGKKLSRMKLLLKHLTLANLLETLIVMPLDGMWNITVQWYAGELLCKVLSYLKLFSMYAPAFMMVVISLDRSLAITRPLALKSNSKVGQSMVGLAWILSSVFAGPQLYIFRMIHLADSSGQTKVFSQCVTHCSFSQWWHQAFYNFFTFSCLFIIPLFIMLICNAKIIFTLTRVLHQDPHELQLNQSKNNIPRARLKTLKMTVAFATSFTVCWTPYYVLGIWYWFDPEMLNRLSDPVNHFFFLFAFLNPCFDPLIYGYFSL
Sequence of UniProt P35346 (whole entry, unmodified, looked up): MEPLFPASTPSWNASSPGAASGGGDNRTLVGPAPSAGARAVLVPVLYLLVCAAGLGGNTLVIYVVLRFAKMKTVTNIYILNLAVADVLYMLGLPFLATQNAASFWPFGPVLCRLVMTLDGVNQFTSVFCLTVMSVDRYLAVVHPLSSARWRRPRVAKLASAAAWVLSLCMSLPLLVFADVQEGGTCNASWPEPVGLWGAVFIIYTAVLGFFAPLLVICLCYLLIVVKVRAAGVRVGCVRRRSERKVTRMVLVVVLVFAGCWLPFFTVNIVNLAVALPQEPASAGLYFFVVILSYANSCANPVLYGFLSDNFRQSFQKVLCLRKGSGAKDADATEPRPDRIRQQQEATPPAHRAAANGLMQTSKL
Sequence of UniProt Q96DB2 (whole entry, looked up): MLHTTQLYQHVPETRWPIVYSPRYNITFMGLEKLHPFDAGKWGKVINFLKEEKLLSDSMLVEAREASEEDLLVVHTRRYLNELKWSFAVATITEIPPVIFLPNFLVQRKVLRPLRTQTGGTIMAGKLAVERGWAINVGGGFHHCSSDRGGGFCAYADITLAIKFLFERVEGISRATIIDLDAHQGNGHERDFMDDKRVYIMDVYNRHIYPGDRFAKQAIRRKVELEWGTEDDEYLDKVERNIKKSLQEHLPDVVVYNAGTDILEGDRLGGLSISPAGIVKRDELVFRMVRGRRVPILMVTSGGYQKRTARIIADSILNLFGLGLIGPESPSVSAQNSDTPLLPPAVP
Sequence of UniProt O15530 (whole entry, looked up): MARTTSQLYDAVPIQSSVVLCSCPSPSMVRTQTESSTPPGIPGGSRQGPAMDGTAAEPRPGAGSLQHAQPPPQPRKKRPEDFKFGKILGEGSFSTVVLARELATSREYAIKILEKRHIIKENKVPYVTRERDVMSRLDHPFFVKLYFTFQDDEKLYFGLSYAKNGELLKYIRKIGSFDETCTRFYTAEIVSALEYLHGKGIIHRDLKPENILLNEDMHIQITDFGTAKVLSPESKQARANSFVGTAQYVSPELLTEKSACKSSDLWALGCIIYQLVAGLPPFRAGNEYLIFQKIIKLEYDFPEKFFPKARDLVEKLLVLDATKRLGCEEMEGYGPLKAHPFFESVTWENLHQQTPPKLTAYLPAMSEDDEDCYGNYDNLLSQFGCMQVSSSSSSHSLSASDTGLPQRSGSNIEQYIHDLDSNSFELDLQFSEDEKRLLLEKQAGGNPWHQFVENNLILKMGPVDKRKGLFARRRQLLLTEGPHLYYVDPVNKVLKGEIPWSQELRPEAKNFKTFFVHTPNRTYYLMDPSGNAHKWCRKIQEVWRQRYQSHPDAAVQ
Sequence of UniProt P21397 (whole entry, looked up): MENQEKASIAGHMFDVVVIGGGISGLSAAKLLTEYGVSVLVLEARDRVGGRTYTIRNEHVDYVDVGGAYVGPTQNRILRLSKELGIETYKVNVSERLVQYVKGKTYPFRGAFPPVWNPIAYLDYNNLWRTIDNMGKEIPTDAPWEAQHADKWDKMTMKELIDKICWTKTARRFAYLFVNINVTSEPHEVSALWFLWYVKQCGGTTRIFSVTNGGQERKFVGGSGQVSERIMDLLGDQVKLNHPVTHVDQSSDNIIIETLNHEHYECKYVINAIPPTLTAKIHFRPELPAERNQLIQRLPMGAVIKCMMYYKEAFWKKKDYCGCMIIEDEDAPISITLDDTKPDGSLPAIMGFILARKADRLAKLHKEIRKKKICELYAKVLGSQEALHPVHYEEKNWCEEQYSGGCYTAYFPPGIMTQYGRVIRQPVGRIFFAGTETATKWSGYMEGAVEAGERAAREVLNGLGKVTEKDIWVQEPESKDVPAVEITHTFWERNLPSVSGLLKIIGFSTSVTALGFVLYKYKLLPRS
Sequence of UniProt Q9NXA8 (whole entry, looked up): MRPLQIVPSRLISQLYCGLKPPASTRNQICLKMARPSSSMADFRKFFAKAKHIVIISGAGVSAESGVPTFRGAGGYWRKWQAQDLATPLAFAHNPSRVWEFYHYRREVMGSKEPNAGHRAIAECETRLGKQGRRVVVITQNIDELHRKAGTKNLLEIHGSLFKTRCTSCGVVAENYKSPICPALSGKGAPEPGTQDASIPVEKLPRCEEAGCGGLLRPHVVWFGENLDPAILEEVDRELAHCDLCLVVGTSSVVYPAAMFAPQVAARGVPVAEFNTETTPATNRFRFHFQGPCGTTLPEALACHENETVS

O=C(NO)c1coc(-c2ccc(Br)cc2)n1 — IC50 (hdac10 (Danio rerio, UniProt F1QCV2)): 399 ± 43 nM
Clc1cc(Cl)c2c(c1)[C@H](NCCCNc1nc3cccnc3[nH]1)CCO2 — IC50 (MARS2 (Homo sapiens, UniProt Q96GW9); enzyme activity, inhibitor): 17.5 nM
O=C(O)Cc1cc2c(cc1C(=O)c1cccc(Br)c1)OCO2 — IC50 (Gria2; ion current, patch clamp): 4260 nM
CCn1c(=O)c(=O)n(CC)c2ccccc21 — IC50 (DYRK1A (Homo sapiens, UniProt Q13627); enzyme activity, inhibitor, ADP detection): 550 nM
O=C(O)CCNC(=S)NCCCC[C@H](NS(=O)(=O)c1cccc(F)c1)C(=O)N[C@@H](Cc1c[nH]c2ccccc12)C(=O)NC1CCC1 — IC50 (SIRT5 (Homo sapiens, UniProt Q9NXA8); inhibitor, fluorogenic; pre-incubation 16 h, with: NAD+ 500 µM): 104 ± 3 nM
Cc1nc(O)c2nnn(CC3CCCN(C(=O)c4c(F)cccc4F)C3)c2n1 (centres unmarked) — IC50 (VKORC1; carboxylation, inhibitor, ELISA; HEK293 stably expressing; 24 h, with: vitamin K epoxide 5 µM): > 100000 nM
CN1CCc2cc(Br)c(O)cc2C(c2ccc(NC(=O)CCOCCOCCOCCOCCN=[N+]=[N-])cc2)C1 (centres unmarked) — IC50 (DRD1 (Homo sapiens, UniProt P21728); cell-based): 141 nM
Cc1nc2c(F)cc(-c3nc(Nc4ccc(C(=O)NCCCCCCCC(=O)NO)cc4)ncc3F)cc2n1C(C)C — IC50 (CDK4): 1.6 nM
O=C(CN1CN(c2ccccc2)C2(CCN(C(=O)c3ccc4[nH]ncc4c3)CC2)C1=O)NCCN1CCOCC1 — IC50 (DDR2; ligand displacement): 1640 nM
CCCC[C@H](NC(=O)[C@H](CS)NC(=O)[C@H](Cc1c[nH]c2ccccc12)NC(=O)[C@H](CCCNC(=N)N)NC(=O)[C@@H](Cc1ccccc1)NC(=O)[C@H](Cc1c[nH]cn1)NC(=O)[C@H](CCC(=O)O)NC(=O)[C@H](CS)NC(=O)[C@H](CS)NC(C)=O)C(=O)NCC(=O)NCC(N)=O — IC50 (Mc1r; ligand displacement, radioligand): 70.9 nM
Cc1nn(-c2cccc(N)c2)c(=O)c2cnc(Nc3ccc(N4CCNCC4)cc3)nc12 — IC50 (PASK (Homo sapiens, UniProt Q96RG2); enzyme activity, inhibitor): > 10000 nM
Cc1nc2c(F)cc(-c3nc(Nc4ccc(NC(=O)CCCCCCC(=O)O)cc4)ncc3F)cc2n1C(C)C — IC50 (CDK4): 2.2 nM
CCOc1cc(CN2CC3(CC(N4CCC(C(=O)O)CC4)=NO3)C2)cc(OCC)c1-c1ccc(F)cc1 — IC50 (SSTR5 (Homo sapiens, UniProt P35346, N100A); cAMP level, antagonist, GloSensor; AD293; N100A mutant, bandwidth 2.64, with: CST17 EC80 and forskolin): 1120 nM
CC[C@H](C)[C@@H]1NC(=O)[C@H](Cc2ccccc2C(F)(F)F)NC(=O)CCSCc2cccc(n2)CSCCCNC(=O)[C@H](CCCCCC(=O)NO)NC1=O — IC50 (HDAC11 (Homo sapiens, UniProt Q96DB2); enzyme activity, inhibitor, fluorescence): 2300 nM
CC1CN(C(=O)Cn2ncc3cccn3c2=O)CC(C)O1 (centres unmarked) — IC50 (VKORC1; carboxylation, inhibitor, ELISA; HEK293 stably expressing; 24 h, with: vitamin K epoxide 5 µM): 5510 nM
O=C(O)Cc1cc2c(cc1C(=O)c1cccc(Cl)c1)OCO2 — IC50 (Gria2; glutamate-evoked current, inhibitor, whole-cell patch clamp; HEK293T, homomeric receptor): 3890 nM
CCCC[C@H](NC(=O)CNC(=O)CNC(=O)[C@H](CCCCNC(=O)[C@H](CCN)NC(=O)C(C)c1ccc(CC(C)C)cc1)NC(=O)CN1CCN(CC(=O)O)CCN(CC(=O)O)CCN(CC(=O)O)CC1)C(=O)N[C@H]1CC(=O)NCCCC[C@@H](C(N)=O)NC(=O)[C@H](Cc2c[nH]c3ccccc23)NC(=O)[C@H](CCCNC(=N)N)NC(=O)[C@@H](Cc2ccccc2)NC(=O)[C@H](Cc2c[nH]cn2)NC1=O (some centres unmarked) — IC50 (Mc1r; radioligand binding, competitor; B16-F10 mouse melanoma; 2 h, 25 °C, with: radiolabelled NDP-MSH): 0.58 ± 0.06 nM
CCCCCCC(=O)Nc1ccc(Nc2ncc(F)c(-c3cc(F)c4nc(C)n(C(C)C)c4c3)n2)cc1 — IC50 (CDK4): 5.9 nM
CC(C)c1ccc(/C=C/C(=O)c2ccc(Br)cc2)cc1 — IC50 (MAOA (Homo sapiens, UniProt P21397); enzyme activity, inhibitor): 1300 nM
C=C(F)C(=O)Nc1ccc2c(-c3ccccc3CNc3nc(NC[C@H]4CCNC[C@@H]4O)nc4c(C(C)C)cnn34)nccc2c1 — IC50 (CDK7 (Homo sapiens, UniProt P50613); kinase activity, inhibitor, radiometric): 10 nM
C[C@@H]1CN(c2cc(=O)n(C)c3ccc(C#N)nc23)[C@H](C)CN1Cc1ccc(S(=O)(=O)n2cnc(C3CC3)n2)cc1 — IC50 (DGKA (Homo sapiens, UniProt P23743); inhibitor, ADP-Glo; with: DAG micelles): 1920 nM
CC(C)(COP(=O)(O)OP(=O)(O)OC[C@H]1O[C@@H](n2cnc3c(N)ncnc32)[C@H](O)[C@@H]1OP(=O)(O)O)[C@@H](O)C(=O)NCCC(=O)NCCSCCC(=O)N[C@@H](CO)C(=O)NCC(=O)N[C@@H](CCCNC(=N)N)C(=O)NCC(=O)N[C@@H](CCCCN)C(N)=O — IC50 (NAA40 (Homo sapiens, UniProt Q86UY6); enzyme activity, inhibitor, fluorescence): 92 nM
COC(=O)CCCCC(=O)Nc1ccc(Nc2ncc(F)c(-c3cc(F)c4nc(C)n(C(C)C)c4c3)n2)cc1 — IC50 (CDK4): 1.5 nM
CCn1nc(Cl)c2c1-c1cnc(N)c(c1)O[C@H](C)c1cc(F)ccc1-c1nn(C)cc1C2 — IC50 (EPHA4 (Homo sapiens, UniProt P54764); enzyme activity, inhibitor, radiometric): 510 nM
CCOC(=O)c1cnc(NCc2cccc(NC(=O)c3cc(-c4ccccc4)n(-c4ccccc4)n3)c2)nc1 — IC50 (Genome polyprotein, NS2B-NS3 protease (dengue virus type 2, UniProt P29990); enzyme activity; with: AMC substrate 50 µM): 21000 nM
CCCCN(CCc1ccccc1)CCc1cccc(O)c1 — IC50 (Oprm1 (Rattus norvegicus, UniProt P33535); β-arrestin recruitment, antagonist): 1100 nM
CCCCCCCCC(=O)Nc1ccc(Nc2ncc(F)c(-c3cc(F)c4nc(C)n(C(C)C)c4c3)n2)cc1 — IC50 (CDK4): 22 nM
O=C(CN1CN(c2cccc(Cl)c2)C2(CCN(C(=O)c3cnc4[nH]ncc4c3)CC2)C1=O)NCC(F)(F)F — IC50 (DDR2; ligand displacement): 2390 nM
Cc1cc(C(=O)NCC(F)c2ccc(Cl)cc2Cl)c(Oc2cccc(C3CC3)c2)nn1 (centres unmarked) — IC50 (serine palmitoyltransferase (Botrytis cinerea, UniProt A0A384JAG3+A0A384JQT2)): 9 ± 3 nM
CC(C)C[C@H](NC(=O)[C@@H](CCCCNC(=O)[C@@H](Cc1ccccc1)NC(=O)CCCCCNC(=O)CN1CCN(CC(=O)O)CCN(CC(=O)O)CCN(CC(=O)O)CC1)NC(=O)[C@H](Cc1ccc(O)cc1)NC(=O)[C@H](CO)NC(=O)[C@H](Cc1c[nH]c2ccccc12)NC(=O)[C@H](Cc1c[nH]cn1)NC(=O)[C@@H]1CCC(=O)N1)C(=O)N[C@@H](CCCNC(=N)N)C(=O)N1CCC[C@H]1C(=O)NCC(N)=O — IC50 (GNRHR (Homo sapiens, UniProt P30968); ligand displacement, radioligand; pH 7.4, cell membranes): 7.6 nM
O=C(CN1CN(c2ccccc2)C2(CCN(C(=O)c3ccc4[nH]ncc4n3)CC2)C1=O)NCC(F)(F)F — IC50 (DDR2; ligand displacement): 858 nM
CCN(CC)CC(=O)Nc1cccc(-n2cc(-c3ccc4ccc(-c5cn(-c6cccc(NC(=O)CN(CC)CC)c6)nn5)cc4c3)nn2)c1 — IC50 (PDPK1 (Homo sapiens, UniProt O15530); enzyme activity, inhibitor): > 10000 nM
